Results gathered from unrelated publications.
A part holds a random share of what one study measured.

Block 1
Target: Ras GTPase-activating protein-binding protein 1, RRM domain (G3BP1, Homo sapiens, UniProt Q13283)
Sequence of UniProt Q13283 (whole entry, looked up): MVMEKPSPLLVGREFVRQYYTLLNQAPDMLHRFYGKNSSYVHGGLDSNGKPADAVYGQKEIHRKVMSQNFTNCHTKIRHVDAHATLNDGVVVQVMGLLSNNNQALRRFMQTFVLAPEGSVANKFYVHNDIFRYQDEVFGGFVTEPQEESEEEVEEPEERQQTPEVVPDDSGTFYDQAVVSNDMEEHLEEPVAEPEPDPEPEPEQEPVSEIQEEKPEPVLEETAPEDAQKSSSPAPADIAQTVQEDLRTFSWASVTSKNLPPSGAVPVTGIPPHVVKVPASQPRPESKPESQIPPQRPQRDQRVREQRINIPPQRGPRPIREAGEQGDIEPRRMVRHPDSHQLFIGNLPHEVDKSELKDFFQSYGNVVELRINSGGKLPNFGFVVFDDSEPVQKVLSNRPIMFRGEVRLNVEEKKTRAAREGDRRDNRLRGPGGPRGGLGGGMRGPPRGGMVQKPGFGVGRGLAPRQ
Technique: RNA Bind-n-Seq
Form: RNA
Medium: in vitro
Concentration: 1 µM
Setting: whole 134-nt RNA, ends assumed
Added: 150 mM KCl
Reference: input library
Direction: higher = stronger binding
Measurement: log2 enrichment
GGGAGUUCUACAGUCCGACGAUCUCCUGUGCUACACAUCGUAUGUACCGAAUCGGGGUUUUUUGGGGUUUUUUGGUUUUUUGGAAAGUAUUAUGUUACGCCGUUCGGAUCUGCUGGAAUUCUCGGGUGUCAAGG: -0.124
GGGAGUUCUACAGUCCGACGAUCAAGUCCUGUGCUACACAUCGUAUGUACCGAAUCGGGAAAAGGGGAAAAGGAAAAGGGAAAGUAUUAUGUUACGCCGUUCGGAUCUGCACUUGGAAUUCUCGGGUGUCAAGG: 0.0911
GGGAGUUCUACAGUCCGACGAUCUGUGCUACACAUCGUAUGUACCGAAUCGGGGUUUUUUUGGGUUUUUUUGGGGUUUUUUUGGGAAAGUAUUAUGUUACGCCGUUCGGAUCUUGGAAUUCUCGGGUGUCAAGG: -0.2
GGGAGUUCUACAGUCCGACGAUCUGUGCUACACAUCGUAUGUACCGAAUCGGGGUUUUUUUGGGUUUUUUUGGGUUUUUUUGGGGAAAGUAUUAUGUUACGCCGUUCGGAUCUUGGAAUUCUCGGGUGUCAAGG: -0.111
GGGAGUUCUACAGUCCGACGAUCCAAGUCCUGUGCUACACAUCGUAUGUACCGAAUCGGUUUGGUUUUUGGUUUUUGGAAAGUAUUAUGUUACGCCGUUCGGAUCUGCACUUCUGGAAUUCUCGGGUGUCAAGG: -0.188
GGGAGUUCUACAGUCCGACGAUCGCAGGAAGUAAAAACAAUUGGAAAUGCUUCGGAUAGUGGCAGGGGUGGGGGUUGCUAAGGAAAGGGUGGGAUGGGAGUGGGUAAAGAGUUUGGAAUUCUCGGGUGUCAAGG: 1.01
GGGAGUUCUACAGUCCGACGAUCAGGCCCUGGUGGCAUGCGGGGAGGAAGAGGUGGCCUCAUGGAUCGUGGUGGUCCCGGUGGAAUGUUCAGAGGUGGCCGUGGUGGAGACAGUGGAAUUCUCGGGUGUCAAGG: 1.12
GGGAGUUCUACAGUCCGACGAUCACCAUGCAGGUGGGCAUCUUUGGGAAGUGGGGCAAGGGGGGGAUAGGGCGGGGGGUAACACUUUGGGAACAGGUGGUCCCAGGUCGUUUCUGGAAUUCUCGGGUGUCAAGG: 1.04
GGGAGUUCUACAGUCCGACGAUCAGUCCUGUGCUACACAUCGUAUGUACCGAAUCGGGCCCCCGGCCCCCGGCCCCCGGGAAAGUAUUAUGUUACGCCGUUCGGAUCUGCACUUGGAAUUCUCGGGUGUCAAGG: -0.61

Block 2
Target: Interferon regulatory factor 3, full length, phosphomimetic (IRF3, Homo sapiens, UniProt Q14653, residues 1-427, S386D/S396D/S398D/S402D/T404D/S405D)
Sequence of UniProt Q14653 (whole entry, unmodified, looked up): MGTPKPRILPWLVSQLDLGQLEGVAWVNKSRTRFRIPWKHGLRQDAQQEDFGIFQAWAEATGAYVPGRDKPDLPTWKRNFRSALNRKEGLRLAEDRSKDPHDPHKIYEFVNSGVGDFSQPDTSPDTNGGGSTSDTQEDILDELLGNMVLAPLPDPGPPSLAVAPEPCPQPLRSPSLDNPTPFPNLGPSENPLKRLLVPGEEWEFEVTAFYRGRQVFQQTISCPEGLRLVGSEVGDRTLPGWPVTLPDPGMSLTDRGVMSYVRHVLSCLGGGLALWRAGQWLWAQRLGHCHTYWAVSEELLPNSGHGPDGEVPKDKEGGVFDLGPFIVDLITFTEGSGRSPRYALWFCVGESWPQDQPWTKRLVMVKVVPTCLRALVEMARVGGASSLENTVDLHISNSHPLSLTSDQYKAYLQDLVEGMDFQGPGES
Technique: protein-binding microarray
Form: double-stranded DNA, one strand shown
Medium: in vitro
Concentration: 2540 nM top
Setting: 60-bp whole probe
Added: salmon DNA 0.4 mg/ml
Reference: random background probes
Direction: higher = stronger binding
Measurement: fitted relative affinity
Shared flanks, not repeated: GCCTAGCAC … GTCTTGATTCGCTTGACGCTGCTG
TTAGAACTGGGATTTCGATTAGTGCTA: -0.18 z-score
TTAGCACTGGGTCTCGGTTAGTGCTAG: -0.737 z-score
TCAATTATATCTGTGTTACTGTGCTAG: 0.368 z-score
GACGATTTCGGGTTTCGAGGCGTGCTA: 2.57 z-score
TTAGGTATCCTACTTCTTTAGTGCTAG: 4.03 z-score
GACGGACTGGGACTGGGGCCGTGCTAG: -0.999 z-score
TTAGGTATCGACTCTCGGTTAGTGCTA: 0.882 z-score
TCAGGACTGCTTCTCCTTTAGTGCTAG: 0.142 z-score
TTCGGACTGCTTCTCCTTTAGTGCTAG: 0.177 z-score
GACGGTAACGGACTGGGGACGTGCTAG: -0.523 z-score
GACGGTATCCTACTGTTGACGTGCTAG: 2.56 z-score
CGAGTTTCTATTTTCTGAATGTGCTAG: 4.58 z-score
TTAGAAATGAGTATCGATTAGTGCTAG: 0.266 z-score
CCCAATTGTCTTTTCACTTTGTGCTAG: 1.78 z-score
TTTTGCTTTCTTTTATGCTCGTGCTAG: 4.23 z-score
TTAGAACTGGCGTATCGATTAGTGCTA: -0.315 z-score
CATCATTGCCTGTTTTTCCCCGTGCTA: 0.322 z-score
TTAGATCTCCTTCTCCTTTAGTGCTAG: 2.65 z-score
TTAGATTTTGGGTATCGATTAGTGCTA: 0.159 z-score

Block 3
Target: Histone acetyltransferase KAT6A, winged helix 2, GST fusion (KAT6A, Homo sapiens, UniProt Q92794, residues 85-181)
Technique: protein binding microarray
Form: double-stranded DNA, one strand shown
Medium: in vitro
Concentration: not given
Setting: 8-mer, flanks averaged, mean of 2 arrays, mostly near background
Reference: not given
Direction: higher = stronger binding
Measurement: E-score
Construct (chain): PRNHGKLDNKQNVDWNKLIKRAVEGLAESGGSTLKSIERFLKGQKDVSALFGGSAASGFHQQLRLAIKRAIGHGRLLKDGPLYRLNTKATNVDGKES
CGAGCCAC: 0.0419
CAAATTTC: 0.105
CCCCATCA: 0.054
AGTCCCAA: 0.0615
CTTTCCGA: 0.0598
CCCCACAG: -0.0216
AACACTCT: 0.0127
CACAATTA: -0.0504
ATAAGAAA: 0.0568
GCACTACA: -0.0584
CAAATAGG: -0.0767
GGACATAC: -0.131
AGGTGTGA: -0.102
GGTTTTTA: 0.0238
GGGGTGAA: 0.0134
GTGTTTTA: 0.0623
GCGAAGCC: 0.15
ATCATCGA: 0.0403
CTCCTAAG: -0.00576
ACCGTTGC: -0.14
ACAACCCT: 0.117

Block 4
Target: Centromere-binding protein 1, full length, His-tagged (CBF1, Saccharomyces cerevisiae, UniProt P17106, residues 1-351)
Sequence of UniProt P17106 (whole entry, looked up): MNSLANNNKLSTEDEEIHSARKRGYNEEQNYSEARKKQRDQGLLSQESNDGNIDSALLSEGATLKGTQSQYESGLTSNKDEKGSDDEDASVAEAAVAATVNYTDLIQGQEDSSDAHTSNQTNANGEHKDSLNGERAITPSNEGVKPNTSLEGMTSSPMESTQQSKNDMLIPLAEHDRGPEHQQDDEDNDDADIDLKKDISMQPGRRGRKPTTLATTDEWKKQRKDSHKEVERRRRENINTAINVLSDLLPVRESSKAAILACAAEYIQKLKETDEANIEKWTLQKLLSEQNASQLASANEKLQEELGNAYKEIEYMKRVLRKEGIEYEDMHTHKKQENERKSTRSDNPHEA
Technique: competition protein-binding microarray
Form: double-stranded DNA, one strand shown
Medium: in vitro
Concentration: 2 µM
Setting: whole 60-bp probe, lowest competitor level
Added: Pho4 competitor, 0.05 µM
Direction: higher = stronger binding
Measurement: fluorescence intensity
TTGTCTCACTATTAACGCGTGGCCGGGTAAGACCCAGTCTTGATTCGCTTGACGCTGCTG: 68.8 a.u.
ATGGAGTTAATTCACCACGTTACTAAATAAGAGATTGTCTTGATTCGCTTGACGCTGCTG: 240 a.u.
TGCCGCATTTCTTCCCGCGTGGCAACTTCTGCGTACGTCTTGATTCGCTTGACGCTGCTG: 79.6 a.u.
CTAACGAAGGTTTGTACAGTGGGTGACAAGCCAAGTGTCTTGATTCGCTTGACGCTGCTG: 79.2 a.u.
CATACCCAACCTTGGACGGTGGGTGAAGATATTTGTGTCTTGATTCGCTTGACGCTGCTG: 67.5 a.u.
AAATTACTAAGTTGTCACTGTACTTACCCCGTATGAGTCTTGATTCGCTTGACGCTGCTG: 84.1 a.u.
ATCATCGAGTGAAGTATCGTGACTCGTACATTTGAAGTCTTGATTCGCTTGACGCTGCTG: 382 a.u.
TACCGGATGCAATCGCACGGGCACTAGCCTGTGCCTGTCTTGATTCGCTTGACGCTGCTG: 53.3 a.u.
GTCTTGTCTCATTGGTTGGTGGGTGTCCCCACTTCAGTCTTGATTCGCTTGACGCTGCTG: 87.3 a.u.
CATGCTATGATGCCCACTGTGATATCCAGAGCAAAGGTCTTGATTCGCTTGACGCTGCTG: 97.2 a.u.
CTAACGAAGGTTTGTGGGGTGGGTGACAAGCCAAGTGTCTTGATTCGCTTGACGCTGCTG: 72.2 a.u.
CCTGGACGCATTCAACACGCTGCTCGAGCGGCTGCTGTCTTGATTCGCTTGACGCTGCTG: 67.1 a.u.
TACATCTATTATATTCACGTGCAAAGCATTTTCAGCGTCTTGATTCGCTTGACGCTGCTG: 2180 a.u.
CGTCCTAGTGATTGTCACTACACTTCCATGAGGAAGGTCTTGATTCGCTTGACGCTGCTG: 87 a.u.
AAATCATGAGAAGCGCACATGTCGAGATATCAATAGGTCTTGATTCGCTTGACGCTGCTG: 146 a.u.
CATACCCAACCTTGTCACGTGGGTGAAGATATTTGTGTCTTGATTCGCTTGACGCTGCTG: 4130 a.u.
GAATAGAGGTGGTGAGTCGTGCGGAACGACGAACCTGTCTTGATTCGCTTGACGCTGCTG: 59.1 a.u.
AAATTACTAAGTTGTCACTAGACTTACCCCGTATGAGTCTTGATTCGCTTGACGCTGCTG: 76.5 a.u.
AAAGCGGTAATTTGTCACTAAACTTCACATATCTATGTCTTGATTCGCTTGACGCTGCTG: 87.5 a.u.

A few entries again (block 1):
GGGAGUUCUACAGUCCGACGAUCGCAGGAAGUAAAAACAAUUGGAAAUGCUUCGGAUAGUGGCAGGGGUGGGGGUUGCUAAGGAAAGGGUGGGAUGGGAGUGGGUAAAGAGUUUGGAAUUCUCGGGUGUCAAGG: 1.01
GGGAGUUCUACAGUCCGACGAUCAGUCCUGUGCUACACAUCGUAUGUACCGAAUCGGGCCCCCGGCCCCCGGCCCCCGGGAAAGUAUUAUGUUACGCCGUUCGGAUCUGCACUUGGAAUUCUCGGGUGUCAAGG: -0.61
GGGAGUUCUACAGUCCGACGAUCUGUGCUACACAUCGUAUGUACCGAAUCGGGGUUUUUUUGGGUUUUUUUGGGGUUUUUUUGGGAAAGUAUUAUGUUACGCCGUUCGGAUCUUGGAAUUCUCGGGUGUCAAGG: -0.2
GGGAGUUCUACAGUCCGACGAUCACCAUGCAGGUGGGCAUCUUUGGGAAGUGGGGCAAGGGGGGGAUAGGGCGGGGGGUAACACUUUGGGAACAGGUGGUCCCAGGUCGUUUCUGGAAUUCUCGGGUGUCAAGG: 1.04
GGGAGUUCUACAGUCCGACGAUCUGUGCUACACAUCGUAUGUACCGAAUCGGGGUUUUUUUGGGUUUUUUUGGGUUUUUUUGGGGAAAGUAUUAUGUUACGCCGUUCGGAUCUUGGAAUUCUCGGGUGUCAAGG: -0.111
